Earlier results that unrelated publications cite.
Each line is one published result; not all experiments were run side by side. “And” joins repeats or separate records; there may be more than shown. ± gives the spread as reported.
OfChi-h: Chitinase (OfChi-h, Ostrinia furnacalis, UniProt Q4AE59)
DRD2: D(2) dopamine receptor (DRD2, Homo sapiens, UniProt P14416)
Sequence of UniProt P14416 (whole entry, looked up): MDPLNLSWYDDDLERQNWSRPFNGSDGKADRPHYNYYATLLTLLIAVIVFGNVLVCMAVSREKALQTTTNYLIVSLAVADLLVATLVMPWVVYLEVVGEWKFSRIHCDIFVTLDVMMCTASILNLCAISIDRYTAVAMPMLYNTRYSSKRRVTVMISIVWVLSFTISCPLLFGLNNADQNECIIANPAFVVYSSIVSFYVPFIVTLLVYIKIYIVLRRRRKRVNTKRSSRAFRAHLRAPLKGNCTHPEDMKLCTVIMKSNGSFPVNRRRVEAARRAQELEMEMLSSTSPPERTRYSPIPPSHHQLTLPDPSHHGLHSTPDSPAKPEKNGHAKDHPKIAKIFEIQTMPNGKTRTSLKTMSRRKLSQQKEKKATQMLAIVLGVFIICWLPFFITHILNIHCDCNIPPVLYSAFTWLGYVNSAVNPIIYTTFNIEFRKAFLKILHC
Sequence of UniProt P27338 (whole entry, looked up): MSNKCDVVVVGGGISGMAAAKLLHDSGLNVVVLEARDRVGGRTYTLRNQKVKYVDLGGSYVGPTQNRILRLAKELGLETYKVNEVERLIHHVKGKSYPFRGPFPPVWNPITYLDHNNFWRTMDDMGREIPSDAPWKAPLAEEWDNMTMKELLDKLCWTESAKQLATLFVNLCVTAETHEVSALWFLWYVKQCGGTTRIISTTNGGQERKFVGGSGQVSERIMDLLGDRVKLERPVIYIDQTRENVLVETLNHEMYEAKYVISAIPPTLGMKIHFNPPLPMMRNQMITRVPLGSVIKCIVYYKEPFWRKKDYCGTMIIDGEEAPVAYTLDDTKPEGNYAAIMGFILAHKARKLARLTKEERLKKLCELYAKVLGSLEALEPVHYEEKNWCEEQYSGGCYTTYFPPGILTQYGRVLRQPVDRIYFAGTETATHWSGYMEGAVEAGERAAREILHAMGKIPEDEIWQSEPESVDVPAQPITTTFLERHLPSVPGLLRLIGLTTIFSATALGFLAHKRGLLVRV

`O=C(C=C(O)C(F)(F)C(F)(F)F)c1ccco1` has a Ki of 0.037 ± 0.005 µM (Plasmodium falciparum formate-nitrite transporter; binding, FCCS; isolated protein).
For `O=c1c(-c2ccc(F)cc2)c[nH]c2ccnc(Cl)c12`, the Ki was 3.13 µM (WDR5).
For `CCn1nc(C2CC2)cc1Nc1nc(C(=O)NC)nc2[nH]c3cc(-c4c(C)noc4C)c(OC)cc3c12`, the Ki was 0.0005 ± 0.0002 µM (Bromodomain-containing protein 4, BD1 (BRD4, Homo sapiens, UniProt O60885); binding; bromodomain 1).
`OCC1OC(n2cnc3c(NCc4ccc(Br)s4)ncnc32)C(O)C1O` (stereo not drawn) gave a Ki of 0.05 µM (ENT1 (guinea pig); binding; membrane fraction).
With `N[C@H]1C[C@@H](C(=O)O)CC1=C(Cl)Cl` the Ki was greater than 10000 µM (GABA aminotransferase, pig; reversible inhibitor; with: GABA substrate).
With `Nc1nc2c([C@@H]3N[C@H](COP(=O)(O)O)[C@@H](O)[C@H]3O)c[nH]c2c(=O)[nH]1` the Ki was 0.0046 ± 0.001 µM (human HGPRT; inhibitor).
`CCN(CC)c1ccc(C(=O)C=C(O)C(F)(F)C(F)(F)F)cn1` has a Ki of 0.142 ± 0.024 µM (Plasmodium falciparum formate-nitrite transporter; binding, FCCS; isolated protein).
`COc1ccc(Nc2nc(Nc3ccc(OCC[18F])cc3)ncc2Br)cc1` — result for “tumour to tissue ratio”: 2.51 (S180 tumour-bearing mice; intravenous, 15 min; baseline: tumour over muscle).
The Ki of `NS(=O)(=O)c1nnc(NC(=O)CCC2CCCCC2)s1` is reported as 0.346 µM (Enterococcus faecalis gamma-carbonic anhydrase; enzyme activity, inhibitor).
For `O=C1NC2CCCCC2NC1c1c[nH]c2ccccc12` (stereo not drawn), the IC50 was greater than 100 µM (COLO 320 ABCB1-resistant colon; cytotoxicity).
For `CCCNc1ccc(C(=O)C=C(O)C(F)(F)C(F)(F)F)cn1`, the Ki was 0.022 µM (Plasmodium falciparum formate-nitrite transporter PfFNT; binding, affinity-isolated protein).
The Ki of `O=C1CS/C(=N\N=C\c2cccc3ccccc23)N1CCOc1ccccc1` is reported as 4.1 µM (OfChi-h).
The Ki of `CC(C)(C)Nc1ccc(C(=O)C=C(O)C(F)(F)C(F)(F)F)cn1` is reported as 0.239 ± 0.101 µM (Plasmodium falciparum formate-nitrite transporter; binding, FCCS; isolated protein).
With `CCc1c(Cl)cccc1N1CCN(C[C@H](F)CCNC(=O)c2cc3ccccc3[nH]2)CC1` the Ki was 0.0802 ± 0.0138 µM (dopamine D2 receptor; binding).
For `O=c1[nH]cnc2c(CNCC(O)CP(=O)(O)O)c[nH]c12` (racemic), the Ki was greater than 10 µM (human HGPRT; inhibitor).
`O[C@@H]1Cc2cccc(OCCF)c2C[C@H]1N1CCC(c2ccccc2)CC1` gave a Ki of 0.209 ± 0.094 µM (rat sigma-1 receptor; binding).
For `Cc1cc2c(c(O)c1O)C(=O)c1c(O)cc(O)cc1C2=O`, the Ki was 2.41 µM (Amine oxidase [flavin-containing] B (MAOB, Homo sapiens, UniProt P27338)).
`O=c1[nH]c(O)nc2c(CN[C@H](CO)CCP(=O)(O)O)c[nH]c12` gave a Ki of greater than 100 µM (human HGPRT; inhibitor).
The Ki of `Cn1c(SCCCN2CCOC(c3ccc(C(F)(F)F)cc3)C2)nnc1-c1ccc(-c2cnco2)cc1` (stereo not drawn) is reported as 1.48 µM (DRD2; binding).
`COC(F)(F)C(F)(F)C(O)=CC(=O)c1cccnc1` gave a Ki of 0.093 ± 0.002 µM (Plasmodium falciparum formate-nitrite transporter; binding, FCCS; isolated protein).
For `Cn1cc2c3c(c[nH]c(=O)c31)CN(c1ccccn1)c1ccc(CS(C)(=O)=O)cc1-2`, the Ki was 0.0021 µM (Bromodomain-containing protein 4, BD2 (BRD4, Homo sapiens, UniProt O60885); binding; bromodomain 2).
With `O=c1c(-c2ccccc2F)c[nH]c2ccnc(Cl)c12` the Ki was 0.665 µM (WDR5).
With `CN(Cc1c[nH]c2c(=O)[nH]cnc12)[C@H](CO)CCP(=O)(O)O` the Ki was 4.6 ± 0.07 µM (human HGPRT; inhibitor).
For `O=C(C=C(O)C(F)(F)C(F)(F)F)c1ccc(NC(=O)c2ccccc2)nc1`, the Ki was 0.016 ± 0.002 µM (Plasmodium falciparum formate-nitrite transporter; binding, FCCS; isolated protein).
`O=c1[nH]cnc2c(CN[C@@H](CO)CCP(=O)(O)O)c[nH]c12` gave a Ki of 16 ± 1 µM (human HGPRT; inhibitor).
`c1ccc2c3c([nH]c2c1)C(c1c[nH]c2ncccc12)NCC3` (stereo not drawn) gave an IC50 of 54.2 µM and 50 to 80 µM (COLO 320 ABCB1-resistant colon; cytotoxicity).
The Ki of `COc1ccccc1N1CCN(CCCCNC(=O)c2ccc3[nH]c(=O)sc3c2)CC1` is reported as 0.0521 µM (DRD2; binding).
The Ki of `CC(C)CNc1ccc(C(=O)C=C(O)C(F)(F)C(F)(F)F)cn1` is reported as 0.03 ± 0.003 µM (Plasmodium falciparum formate-nitrite transporter; binding, FCCS; isolated protein).
With `O=c1c(-c2cccc(F)c2)c[nH]c2ccnc(Cl)c12` the Ki was 2.6 µM (WDR5).
For `COCCCNc1ccc(C(=O)C=C(O)C(F)(F)C(F)(F)F)cn1`, the Ki was 0.055 µM (Plasmodium falciparum formate-nitrite transporter PfFNT; binding, affinity-isolated protein).
`O=c1[nH]cnc2c(CNCCCP(=O)(O)O)c[nH]c12` has a Ki of 1.3 ± 0.03 µM (human HGPRT; inhibitor).
`O=C(/C=C/c1ccc(O)c(O)c1)OC1CC(O)(C(=O)O)CC(OC(=O)/C=C/c2ccc(O)c(O)c2)C1O` (stereo not drawn) has a Ki of 26.9 µM (OfChi-h).
For `COc1ccccc1N1CCC2(CCN(CCCSc3nnc(-c4ccccc4)n3C)CC2)CC1`, the Ki was 10.9 µM (DRD2; binding).

Repeated from above:
For `O=C(C=C(O)C(F)(F)C(F)(F)F)c1ccc(NC(=O)c2ccccc2)nc1`, the Ki was 0.016 ± 0.002 µM (Plasmodium falciparum formate-nitrite transporter; binding, FCCS; isolated protein).
`COC(F)(F)C(F)(F)C(O)=CC(=O)c1cccnc1` gave a Ki of 0.093 ± 0.002 µM (Plasmodium falciparum formate-nitrite transporter; binding, FCCS; isolated protein).
With `N[C@H]1C[C@@H](C(=O)O)CC1=C(Cl)Cl` the Ki was greater than 10000 µM (GABA aminotransferase, pig; reversible inhibitor; with: GABA substrate).
The Ki of `CC(C)(C)Nc1ccc(C(=O)C=C(O)C(F)(F)C(F)(F)F)cn1` is reported as 0.239 ± 0.101 µM (Plasmodium falciparum formate-nitrite transporter; binding, FCCS; isolated protein).
`O=C(C=C(O)C(F)(F)C(F)(F)F)c1ccco1` has a Ki of 0.037 ± 0.005 µM (Plasmodium falciparum formate-nitrite transporter; binding, FCCS; isolated protein).
